Assay results pooled from the literature.
Each numbered part is a random draw from the data of one study; scales do not carry over between parts. Changes are numbered by the printed parent chain.

Sample 1 — method: protein-binding microarray; molecule type: double-stranded DNA, one strand shown; medium: in vitro; concentration: 250 nM; setting: 60-bp whole probe; added: salmon DNA 0.4 mg/ml; baseline: random background probes; reading: higher = stronger binding; measurement: log fluorescence; constant ends, left off below: GCCTAGCAC … GTCTTGATTCGCTTGACGCTGCTG
Target: Interferon regulatory factor 7, full length, phosphomimetic (IRF7, Homo sapiens, UniProt Q92985, residues 1-503, S101K/S471D/S472D/S475D/S476D/S477D/S483D/S484D/S487D)
Target sequence (chain): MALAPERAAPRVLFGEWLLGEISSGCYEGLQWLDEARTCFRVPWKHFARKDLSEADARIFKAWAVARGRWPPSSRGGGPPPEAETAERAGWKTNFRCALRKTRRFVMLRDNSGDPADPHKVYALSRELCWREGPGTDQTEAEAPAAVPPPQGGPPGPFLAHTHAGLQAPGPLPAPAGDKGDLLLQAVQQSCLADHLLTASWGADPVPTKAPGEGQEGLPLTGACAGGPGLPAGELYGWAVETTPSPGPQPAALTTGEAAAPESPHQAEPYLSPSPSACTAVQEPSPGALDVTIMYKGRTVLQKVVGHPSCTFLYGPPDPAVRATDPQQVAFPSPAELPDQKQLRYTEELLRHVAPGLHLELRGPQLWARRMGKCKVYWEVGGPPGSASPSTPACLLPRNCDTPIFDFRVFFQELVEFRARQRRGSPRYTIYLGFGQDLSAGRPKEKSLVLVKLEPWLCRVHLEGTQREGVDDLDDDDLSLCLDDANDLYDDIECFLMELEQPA
Strand = GACGAACTGGGTTTTCGAGACGTGCTA; value = -0.0281 z-score
Strand = GATGGACTGCTTTTCCTGACGTGCTAG; value = 0.238 z-score
Strand = GAAAACAAAGAAAATACAAAGTGCTAG; value = 0.749 z-score
Strand = TTAGATATCGGGTTTCGATTGGTGCTA; value = 8.39 z-score
Strand = GACGGTTTCATTATCCTGACGTGCTAG; value = 4.47 z-score
Strand = GACGGTTTCGGTTTCAGGACGTGCTAG; value = 13.9 z-score
Strand = GACGGACTGGGACCGGGGACGTGCTAG; value = -0.136 z-score
Strand = GACGATTTCGGGTATCGAGATGTGCTA; value = 1.07 z-score
Strand = TCTTTCACAAGACGAAAGGAGTGCTAG; value = 2.1 z-score
Strand = TCAGATTTTGGTCTTTCACTGTGCTAG; value = 0.0159 z-score
Strand = GACGGTATCGGACTGAGGACGTGCTAG; value = -0.0956 z-score
Strand = GTGAGTCCCAAGAATGGTGTGGTGCTA; value = 0.286 z-score
Strand = TCAACTTTGGAGATGACACTGTGCTAG; value = -0.104 z-score
Strand = TTAGGTATGGGGACTGGGTTAGTGCTA; value = -0.412 z-score
Strand = TTAGGACTGGGTTTAGGTTAGTGCTAG; value = 0.307 z-score
Strand = TGCAACATCCCAATGGCCCTGTGCTAG; value = -0.233 z-score
Strand = ACCAAAATCAAGTCTGGGCTAGTGCTA; value = -0.496 z-score
Strand = TTAGGTTCCCTTTTCCTATAGTGCTAG; value = 4.56 z-score
Strand = TGAGGTTTCCTACTGCTTTAGTGCTAG; value = 0.641 z-score

Sample 2 — target: MAFK, bZIP domain (human); method: DHFR protein complementation; medium: yeast; baseline: wild-type JUN-FOS pair; reading: higher = stronger binding; measurement: binding fitness
Setting: single substitutions, most at no-binding floor
Parent: JUN, bZIP domain (human); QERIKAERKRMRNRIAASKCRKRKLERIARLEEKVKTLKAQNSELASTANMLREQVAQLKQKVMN; partner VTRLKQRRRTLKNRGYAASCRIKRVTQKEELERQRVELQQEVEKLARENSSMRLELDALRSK
Variant = S47R; value = -1.36 natural log
Variant = A57S; value = -1.39 natural log
Variant = R30T; value = -1.4 natural log
Variant = T48M; value = -1.42 natural log
Variant = L38W; value = -1.52 natural log
Variant = L52H; value = -1.42 natural log
Variant = K39M; value = -1.52 natural log
Variant = T48N; value = -1.51 natural log
Variant = V35L; value = -1.46 natural log
Variant = A49Q; value = -1.52 natural log
Variant = K36M; value = -1.26 natural log
Variant = S47Q; value = -1.44 natural log
Variant = A46E; value = -1.46 natural log
Variant = V56R; value = -1.45 natural log
Variant = A57G; value = -1.48 natural log
Variant = A40E; value = -1.48 natural log
Variant = E44G; value = -1.5 natural log
Variant = E33A; value = -1.49 natural log
Variant = Q41R; value = -1.5 natural log
Variant = I28R; value = -1.49 natural log
Variant = V56F; value = -1.5 natural log
Variant = E33M; value = -1.55 natural log
Variant = K36A; value = -1.36 natural log
Variant = A40S; value = -1.34 natural log

Sample 3 — method: protein binding microarray; molecule type: double-stranded DNA, one strand shown; medium: in vitro; concentration: not given; baseline: not given; reading: higher = stronger binding; measurement: E-score
Target: Histone acetyltransferase KAT6A, winged helix 1, GST fusion (KAT6A, Homo sapiens, UniProt Q92794, residues 1-85)
Setting: 8-mer, flanks averaged, mean of 2 arrays, mostly near background
Target sequence (chain): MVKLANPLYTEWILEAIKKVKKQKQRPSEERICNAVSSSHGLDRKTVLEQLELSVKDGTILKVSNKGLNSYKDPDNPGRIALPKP
Strand = AAGGAGAG; value = -0.18
Strand = CAGTCCCA; value = -0.29
Strand = CACCTCTA; value = 0.00713
Strand = TCGACACA; value = -0.155
Strand = ATAGACAC; value = -0.168
Strand = ACCTATAA; value = -0.103
Strand = CTGCATAA; value = -0.208
Strand = ATATGGAA; value = -0.17
Strand = TAAATCCA; value = -0.154
Strand = AGGCCCTA; value = -0.148
Strand = CCTGTCGC; value = 0.16
Strand = TATCCACA; value = -0.274
Strand = AAGGGTTC; value = -0.118
Strand = AGTCGCGC; value = 0.264
Strand = ATGCGGAA; value = 0.132
Strand = GCGACAGA; value = 0.16
Strand = GGAGGAAA; value = -0.0279
Strand = ACAGCCGA; value = 0.0439
Strand = AATTTAGC; value = 0.0146
Strand = CACTAATC; value = -0.0253

Sample 4 — method: RNA Bind-n-Seq; molecule type: RNA; medium: in vitro; concentration: 365 nM; baseline: no-protein control; reading: higher = stronger binding; measurement: RBNS enrichment (R)
Target: RNA binding protein fox-1 homolog 2, RRM domain, GST-SBP tag (RBFOX2, Homo sapiens, UniProt O43251-10, residues 100-194)
Setting: natural RNA segment, single round, ends assumed
Constant ends, left off below: GGGAGUUCUACAGUCCGACGAUC … UGGAAUUCUCGGGUGCCAA
Target sequence (chain): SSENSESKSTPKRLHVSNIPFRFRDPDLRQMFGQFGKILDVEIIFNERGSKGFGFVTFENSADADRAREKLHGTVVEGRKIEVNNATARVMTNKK
Strand = AAAGCAGUAAGUGGUGCAGUAAAAUACUUAAGUUAUUCAAAGAAUGUUAUCUUUCUUGCAAGAGUAAUUUAAGCACAUGGGAAAGAUUCUAGACUUUUUGUUUCUUGCAA; value = 0.595
Strand = CCAUACAAAUAACUCAGCACACAAGUGACCCAGGACAUAUGCCUGCCAAAGGGAUGUGUUAGAAGGCUGCCUUCUCAUGCGCAUUGUCACUUGGAUCUUGUGGUGAGGAC; value = 0.287
Strand = UUCUGACUUUUUAAAUCAUCAUCAUUAUUUUUAAUUAAAAAAAAAUGCCUGUAUGCCUUUUUCUGGUCCAAUUGUAAAUAAAAUGCCAUUGUCCUGUUGUCUCAACUCGA; value = 0.663
Strand = GGAAUUUUCACCUAAGAGGGAUAACUUGUUGCUUCCAAUGAAUGGCUCCCACUCUCGUGGGUGCAAAAGCGGCAGCAAAAAGCAGCCAUUUACUUGGGUACUUAAGAGUU; value = 0.214
Strand = AAAUGUGGAAACUGUGUAUCUUAUAGAGCCUCCUCUCGUCCUACUCAUCCCUCAGCAGAAAAAUGUGGGCCUAAAAUGAGUUGUGUCACUCAGCAAACAUUUCCUGAGUA; value = 0.25
Strand = AGAGGUCGCCGUGGGAAAACAGCACAACAGCACCUCUUGUGUGUGUACUUUCUACCCCCGCCCCCAGUUGUUUUCAGUUAGUAUUUAUUCCUUGGAGUCUAUGAGACUGU; value = 0.719
Strand = GUUCCCAAGAGAUCGGCAACCUUUUUGUCCCUUUCUCAUAAGAAAGGGACACUCCUACAGGUGAGAGUGUAUACCUUACUCUCUCAGAUAAGUGGCUGGACUUAUCUUGU; value = 0.254
Strand = UAUAAUACUGUUAAAUACCCCAUGCUUUGAUCAGGUGGAAAAAAUCAAUAAAGUUUUAAAAAGUAAAGCUGCUCCCAGUGUCAUCAUUUAUAUCCUGUCAAGCCACGGGU; value = 0.592

Some of these lines once more (sample 2):
Variant = K39M; value = -1.52 natural log
Variant = T48N; value = -1.51 natural log
Variant = V35L; value = -1.46 natural log
Variant = A49Q; value = -1.52 natural log
Variant = K36M; value = -1.26 natural log
